Published values of several laboratories.
Every numbered part comes from another study and shows a few of its results, in no order.

Set 1 — method: RNA Bind-n-Seq; molecule type: RNA; medium: in vitro; concentration: 365 nM; reference: no-protein control; direction: higher = stronger binding
Target: RNA binding protein fox-1 homolog 2, RRM domain, GST-SBP tag (RBFOX2, Homo sapiens, UniProt O43251-10, residues 100-194)
Notes: natural RNA segment, single round, ends assumed
Construct (chain): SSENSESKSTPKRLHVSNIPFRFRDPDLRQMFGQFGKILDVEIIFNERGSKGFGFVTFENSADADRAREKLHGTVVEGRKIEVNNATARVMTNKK
Sequence	RBNS enrichment (R)
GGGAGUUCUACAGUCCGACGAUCAGGGUAAGCUAACUGAAUGCCUUGAAAAUAUUAUCCACUGGUCGGUCAUAUGGGAGACUUGUUUCAGUAUUAUUUAUAGUUGCACUUGAUUACCGUUCUCUGAGGCACUGUGGAAUUCUCGGGUGCCAA	1.33
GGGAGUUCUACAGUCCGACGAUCCAAAGAAUUUACUUACUUUAUGUUAAUUACGGGCAUGAAGCAAAAGGUUUUCUUUAAAAAAAAAAAAAAGUGCAGUGAUGUAGGGCUGUGGUUAGUUAACCGUACUGAGUUGGAAUUCUCGGGUGCCAA	0.508
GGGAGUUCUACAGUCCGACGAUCUGAAGGUUGUCUCUUCCGAGGGCCUUCUGAAGACAGGGCUCUUGAACAGACAAGUGGAAGGGCUGUACCAGGGAUAAAGGAAAGAAGUGCCUGUCCAGCAGGGAGCUUGAUGGAAUUCUCGGGUGCCAA	0.672
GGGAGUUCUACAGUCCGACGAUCGUCACAGAGAACUAGUGGUGGCUCUGAGAAGGGGAGGACCUCUGGGCUUUGAUUCCAUCUCCUUGUCUUUUUUCUUUGUUUUUAGAGACAGGGUCCUGCUAUUUCCCAAGUGGAAUUCUCGGGUGCCAA	0.562
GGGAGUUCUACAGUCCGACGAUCAUCCCCAGACCAAAGAGGUUCUCGAAGCAGCUGUGACCAGCCCCUCCCCCCACUUGUCCCCCGUCCUUGCAGCUCCAGCACUGCCUUUGUGGGUGACCACUCCAGACCCUUGGAAUUCUCGGGUGCCAA	0.372
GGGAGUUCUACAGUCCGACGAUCUUGUCUUGGUCUGAUAAUGAUAAGAAGUCAAGGAUUGGCAGAGAAAAUACUAAACGCCAAGAGUUGAGCCUGUGGGUCUCUCCAUAAGAGUUUUAAAACUCUUGCCAGUUUGGAAUUCUCGGGUGCCAA	0.646
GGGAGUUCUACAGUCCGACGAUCCACAAUGCUGUGCAAAGAUUCAAGAGGAGGCAGUCACUGUACUUUGCCUGCUUUUGGGCCUAGAUAACGUCACUGUCUACAAAAAGCUAACUGCUUAGGUUUGAAAAGGCUGGAAUUCUCGGGUGCCAA	0.235
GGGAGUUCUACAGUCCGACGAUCUGUUCAGAAGGGAUCAAAAUUGCCAUCUAACAGGUACCUUAAAGGAUUCCUGGGCAUCUACUUCCACAACUAAUACGUAUUCCACAGUGUUGGCUGUUGGCUUCAAAAAAUGGAAUUCUCGGGUGCCAA	0.46

Set 2 — method: protein-binding microarray; molecule type: double-stranded DNA, one strand shown; medium: in vitro; concentration: 940 nM top; notes: 60-bp whole probe; together with: salmon DNA 0.4 mg/ml; reference: random background probes; direction: higher = stronger binding; all sequences stand within: GCCTAGCAC … GTCTTGATTCGCTTGACGCTGCTG
Target: Interferon regulatory factor 5, full length, phosphomimetic (IRF5, Homo sapiens, UniProt Q13568-2, residues 1-514, S451D/S453D/S456D/S462D)
Sequence	fitted relative affinity
TACGGTTTCGGACTGGGGACGTGCTAG	5.68 z-score
GACGATCTCAATCTCGAGACGTGCTAG	0.524 z-score
TTATATTTTAATCACATATAGTGCTAG	0.195 z-score
TCATTTTTTTCATTATTACTGTGCTAG	1.99 z-score
TTAGTTTTCGGGTTTCGATTAGTGCTA	6.54 z-score
GACGCTTTCGGGACTGGAGACGTGCTA	1.57 z-score
GACGGTCTCGGGTTCGGGACGTGCTAG	1.76 z-score
TTAGGACTGGACACTGGGTCAGTGCTA	-0.297 z-score
GACGATATTAGTCTCGAGACGTGCTAG	1.31 z-score
GACGATATCAGTTTCGCGACGTGCTAG	1.3 z-score
TTGTAGATGCCTTTCTCTTGGTGCTAG	-0.476 z-score
GACGATTTCAGTCTTGAGACGTGCTAG	0.265 z-score
TTAGGTATCCGTCTCGGTTAGTGCTAG	2.07 z-score
TGAGAACTGGGGACTGGATTAGTGCTA	0.16 z-score
GACGAACTGGGGTAACGAGACGTGCTA	0.193 z-score
TTAGCTTTCCTACTGCTTTAGTGCTAG	0.618 z-score
GGAGGAGCGGGACTGCCACCGTGCTAG	-0.905 z-score
GCATCGTAAGCAAAAATGATGTGCTAG	-0.399 z-score
TCAGGTCTCGGTATCGGTTAGTGCTAG	6.76 z-score

Set 3 — method: universal PBM; molecule type: double-stranded DNA, one strand shown; medium: in vitro; concentration: not given; direction: higher = stronger binding
Target: Sal-like protein 4, full length isoform B (SALL4, Homo sapiens, UniProt Q9UJQ4-2, residues 1-616)
Notes: 8-mer, flanks averaged, mean of replicates
Target sequence (chain): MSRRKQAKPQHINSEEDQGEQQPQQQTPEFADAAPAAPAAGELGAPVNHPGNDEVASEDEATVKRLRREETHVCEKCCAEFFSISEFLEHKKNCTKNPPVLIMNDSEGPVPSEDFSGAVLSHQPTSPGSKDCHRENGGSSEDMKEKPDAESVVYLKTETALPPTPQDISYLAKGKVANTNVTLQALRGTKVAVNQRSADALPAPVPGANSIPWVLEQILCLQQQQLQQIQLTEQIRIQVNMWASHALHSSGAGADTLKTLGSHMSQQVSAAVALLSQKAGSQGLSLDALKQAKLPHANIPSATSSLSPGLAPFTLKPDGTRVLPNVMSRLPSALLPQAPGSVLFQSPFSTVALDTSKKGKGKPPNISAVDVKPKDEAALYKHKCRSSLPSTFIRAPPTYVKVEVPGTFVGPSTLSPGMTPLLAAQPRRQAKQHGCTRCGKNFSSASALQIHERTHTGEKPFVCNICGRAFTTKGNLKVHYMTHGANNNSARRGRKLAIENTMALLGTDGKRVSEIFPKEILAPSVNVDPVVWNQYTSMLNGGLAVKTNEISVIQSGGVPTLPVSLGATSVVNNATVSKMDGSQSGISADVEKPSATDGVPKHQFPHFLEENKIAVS
Sequence	E-score
CAAGGCCC	-0.265
CCTTGTCC	-0.204
CTTATCTA	0.272
ATGATTGC	0.22
CCCGTTCG	-0.115
GGGATGAC	-0.214
ACACTCAC	0.0129
GTTCGTCA	-0.0676
GTACTCAC	0.0102
CGCTCTTA	-0.0742
ACGAGCAA	-0.0704
AGCATACT	0.2
ATATTGGG	0.233
ACCACACA	0.117
CGGGAGAG	-0.264
ATTGAGAA	0.218
AGTCAGAG	-0.178
ACAGAAGA	0.0653
TCATAACA	0.387
CCCGACAC	-0.286
CTCGTTTA	0.0954
CGCGCACC	-0.196
GATCGCAA	0.00737
ATCTAATA	0.328

Set 4 — method: RNA Bind-n-Seq; molecule type: RNA; medium: in vitro; concentration: not given; notes: RNA with constant flanks, ends assumed; reference: input RNA pool; direction: higher = stronger binding
Target: RING finger protein unkempt homolog, zinc fingers 1-6, GST-SBP tag (UNK, Homo sapiens, UniProt Q9C0B0, residues 30-357)
Sequence of UniProt Q9C0B0 (30-357, looked up): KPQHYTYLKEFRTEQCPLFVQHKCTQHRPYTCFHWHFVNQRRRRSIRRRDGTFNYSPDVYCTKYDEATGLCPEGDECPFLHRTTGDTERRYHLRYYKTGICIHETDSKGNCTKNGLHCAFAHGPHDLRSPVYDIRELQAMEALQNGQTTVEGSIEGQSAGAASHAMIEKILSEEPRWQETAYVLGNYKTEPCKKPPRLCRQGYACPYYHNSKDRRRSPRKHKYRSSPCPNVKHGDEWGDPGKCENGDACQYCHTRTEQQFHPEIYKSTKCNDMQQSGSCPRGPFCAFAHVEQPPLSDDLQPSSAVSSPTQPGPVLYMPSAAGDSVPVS
Sequence	bound/input enrichment [ratio]
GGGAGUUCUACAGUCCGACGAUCGACUGAUUCUCAACUGAACAUUAUGUCGUUACUUUGAUAAGCAUUCCACUUUUGUUAUUUAUCCGUGCUAUCUUUUUUUUUUACGUGUUAAAUCUUGUGAUUAUUAAAAUAAAGUACCAUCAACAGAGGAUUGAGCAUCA	0.213
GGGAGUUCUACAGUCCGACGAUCGAAUAUAUAGAUCAAGGUCGAAAUCCCCAGCUCUACACCAAAGAGUGCCUGGAGAGGGCUCCCGCUAAAAAUGAGCAAGUUAAAGGCAAGAUCGACACCAUGAAGAAAUUUAAAAGCCUGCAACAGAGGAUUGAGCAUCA	0.38
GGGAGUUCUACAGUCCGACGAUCAGACUAGCCUAUGCUGAAAACAUAGCUCUGCUGGCAGAAACAGCUCUGAGAUUCCUGGAAUCCGUACAGUUAAAAAAUCUUAAUAUGGAAAAUGACCCCAAUAAUGAAGAAAUAGAUGAGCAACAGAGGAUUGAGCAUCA	0.572
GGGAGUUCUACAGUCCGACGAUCAGUUUGGGAUUUGGCUCUUACAUCAGUGAAGUAAAAGAAGUCUUGCAAGAGUGUAAAACAGCCGCAUUAAAAAGAAGAAAGGCCAGUUCUCGUUUGGAAAACCUUGGCAUUCCUGAAGAACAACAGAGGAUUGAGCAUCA	0.177
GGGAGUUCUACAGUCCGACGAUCGAGAACAGCAACAUACAGGUCCUUUCUGAAAGAUCUGCUACUGAAGUAGACAACAAUUUCCGCAAACCACCUCCGUUUUUCCCUCCAGGAGCUCCUCCCACUCACCUUCCACCUCCUCCACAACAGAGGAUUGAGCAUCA	0.376
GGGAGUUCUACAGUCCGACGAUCGGCCAGGAGCGAUUUCACACCAUCACAACCUCCUACUACAGAGGCGCAAUGGGUAUCAUGCCCGUAUAUGACAUCACCAAUGGUAAAAGUUUUGAAAACAUCAGCAAAUGGCUUAGAAACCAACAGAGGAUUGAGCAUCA	0.236
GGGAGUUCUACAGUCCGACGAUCACAAGAAUGCAGAAGGCUGGAAUUCCUUGUCCAACAGUUGUACUGCUUAAGAAGCACAUUUCCGUUAUGUCUUUCAUUGGCCAUGAUCAAGUUCCAGCCCCUAAAUUAAAAGAAGUAAAGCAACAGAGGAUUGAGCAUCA	0.196
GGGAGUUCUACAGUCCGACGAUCGAAGAGAAUGAGGAGGACAGAGAAGUGUCAAGUGAAAAAGAAUUAAAUGGAGAUUCGGAUUCCGAUCCUGAAAACGAGAGUGAAGAAGAAUGAAGACAGAUGCAGCCAGCCAGUCACACGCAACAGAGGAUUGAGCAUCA	0.249

A few entries again (set 2):
Sequence	fitted relative affinity
TTAGGACTGGACACTGGGTCAGTGCTA	-0.297 z-score
GACGATATTAGTCTCGAGACGTGCTAG	1.31 z-score
GACGATATCAGTTTCGCGACGTGCTAG	1.3 z-score
TTGTAGATGCCTTTCTCTTGGTGCTAG	-0.476 z-score
GACGATTTCAGTCTTGAGACGTGCTAG	0.265 z-score
TTAGGTATCCGTCTCGGTTAGTGCTAG	2.07 z-score
